Assay results collected from several papers.
Numbered parts are unrelated; each lists some results of a single study.
UniProt P30559, sequence (whole entry, looked up): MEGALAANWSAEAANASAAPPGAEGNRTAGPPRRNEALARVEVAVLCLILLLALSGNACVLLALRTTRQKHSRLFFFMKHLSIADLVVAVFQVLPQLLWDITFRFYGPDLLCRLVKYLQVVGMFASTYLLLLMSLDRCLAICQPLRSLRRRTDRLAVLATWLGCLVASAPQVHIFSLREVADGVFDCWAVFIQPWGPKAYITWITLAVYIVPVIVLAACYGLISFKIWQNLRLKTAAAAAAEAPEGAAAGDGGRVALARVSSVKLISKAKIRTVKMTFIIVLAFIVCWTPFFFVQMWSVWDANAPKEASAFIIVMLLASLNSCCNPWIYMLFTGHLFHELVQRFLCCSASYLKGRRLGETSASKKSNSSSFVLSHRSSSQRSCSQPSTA
UniProt Q8IYL9, sequence (whole entry, looked up): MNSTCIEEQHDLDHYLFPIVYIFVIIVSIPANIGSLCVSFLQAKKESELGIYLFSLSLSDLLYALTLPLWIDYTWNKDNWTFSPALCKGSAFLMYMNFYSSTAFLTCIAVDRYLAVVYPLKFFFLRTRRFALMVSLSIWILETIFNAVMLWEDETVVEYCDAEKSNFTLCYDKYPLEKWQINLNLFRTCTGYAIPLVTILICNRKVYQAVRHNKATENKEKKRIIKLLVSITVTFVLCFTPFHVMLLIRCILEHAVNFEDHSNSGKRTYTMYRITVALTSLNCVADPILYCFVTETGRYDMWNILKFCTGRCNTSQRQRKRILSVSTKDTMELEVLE
UniProt P08908, sequence (whole entry, looked up): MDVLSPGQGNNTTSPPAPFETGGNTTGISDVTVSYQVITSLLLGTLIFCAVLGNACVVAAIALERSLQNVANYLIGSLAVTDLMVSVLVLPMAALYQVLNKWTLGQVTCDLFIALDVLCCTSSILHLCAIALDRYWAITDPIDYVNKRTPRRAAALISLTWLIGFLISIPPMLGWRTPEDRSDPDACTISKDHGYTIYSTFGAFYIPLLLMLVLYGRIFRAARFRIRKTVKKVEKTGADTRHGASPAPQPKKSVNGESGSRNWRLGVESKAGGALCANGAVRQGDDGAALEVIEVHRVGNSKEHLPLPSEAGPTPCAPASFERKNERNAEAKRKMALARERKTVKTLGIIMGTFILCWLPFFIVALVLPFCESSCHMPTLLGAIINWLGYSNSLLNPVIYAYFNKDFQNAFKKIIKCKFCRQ
UniProt P36894, sequence (whole entry, looked up): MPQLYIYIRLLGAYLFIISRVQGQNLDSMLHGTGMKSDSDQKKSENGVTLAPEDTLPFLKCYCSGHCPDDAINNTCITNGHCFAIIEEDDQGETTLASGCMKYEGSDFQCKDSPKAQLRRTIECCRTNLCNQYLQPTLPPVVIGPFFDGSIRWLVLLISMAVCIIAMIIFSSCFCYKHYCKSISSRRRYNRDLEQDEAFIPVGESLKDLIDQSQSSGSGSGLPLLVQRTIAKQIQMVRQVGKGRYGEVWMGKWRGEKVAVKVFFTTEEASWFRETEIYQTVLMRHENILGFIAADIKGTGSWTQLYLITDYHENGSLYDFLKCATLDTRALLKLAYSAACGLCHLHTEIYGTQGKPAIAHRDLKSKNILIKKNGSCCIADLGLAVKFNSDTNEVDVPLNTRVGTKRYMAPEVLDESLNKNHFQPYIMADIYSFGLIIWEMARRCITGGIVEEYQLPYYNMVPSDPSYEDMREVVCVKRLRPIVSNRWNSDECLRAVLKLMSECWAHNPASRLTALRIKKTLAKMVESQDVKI
UniProt P0DMS8, sequence (whole entry, looked up): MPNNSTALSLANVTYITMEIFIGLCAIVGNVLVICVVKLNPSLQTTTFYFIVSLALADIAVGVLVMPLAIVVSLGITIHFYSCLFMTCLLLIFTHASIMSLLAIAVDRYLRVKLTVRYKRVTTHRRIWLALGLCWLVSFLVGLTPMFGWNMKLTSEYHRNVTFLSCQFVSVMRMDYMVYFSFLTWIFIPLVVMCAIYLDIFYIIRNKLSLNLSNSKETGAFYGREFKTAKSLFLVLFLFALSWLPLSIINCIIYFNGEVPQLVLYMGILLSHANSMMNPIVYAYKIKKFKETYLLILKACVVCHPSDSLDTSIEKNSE
UniProt Q9BXA5, sequence (whole entry, looked up): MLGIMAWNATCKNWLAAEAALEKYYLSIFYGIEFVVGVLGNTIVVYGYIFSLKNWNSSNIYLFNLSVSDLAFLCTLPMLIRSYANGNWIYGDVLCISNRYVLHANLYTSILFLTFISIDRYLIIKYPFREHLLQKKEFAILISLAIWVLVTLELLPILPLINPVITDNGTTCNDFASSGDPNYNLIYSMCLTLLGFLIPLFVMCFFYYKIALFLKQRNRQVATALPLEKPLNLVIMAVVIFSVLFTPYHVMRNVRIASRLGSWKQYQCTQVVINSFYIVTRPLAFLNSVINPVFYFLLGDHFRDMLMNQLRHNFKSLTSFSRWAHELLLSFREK
UniProt P25116, sequence (whole entry, unmodified, looked up): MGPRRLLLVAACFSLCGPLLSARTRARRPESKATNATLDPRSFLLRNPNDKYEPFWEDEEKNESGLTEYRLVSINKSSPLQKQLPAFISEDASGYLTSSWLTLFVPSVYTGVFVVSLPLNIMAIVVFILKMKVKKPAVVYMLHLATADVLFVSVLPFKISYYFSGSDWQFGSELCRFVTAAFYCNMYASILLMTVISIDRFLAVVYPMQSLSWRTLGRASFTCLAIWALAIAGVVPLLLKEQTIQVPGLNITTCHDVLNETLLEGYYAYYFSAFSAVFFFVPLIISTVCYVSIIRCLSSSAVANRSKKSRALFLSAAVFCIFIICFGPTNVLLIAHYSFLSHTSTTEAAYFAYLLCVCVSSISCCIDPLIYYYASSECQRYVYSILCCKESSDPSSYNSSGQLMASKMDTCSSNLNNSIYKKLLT
UniProt P48960, sequence (whole entry, looked up): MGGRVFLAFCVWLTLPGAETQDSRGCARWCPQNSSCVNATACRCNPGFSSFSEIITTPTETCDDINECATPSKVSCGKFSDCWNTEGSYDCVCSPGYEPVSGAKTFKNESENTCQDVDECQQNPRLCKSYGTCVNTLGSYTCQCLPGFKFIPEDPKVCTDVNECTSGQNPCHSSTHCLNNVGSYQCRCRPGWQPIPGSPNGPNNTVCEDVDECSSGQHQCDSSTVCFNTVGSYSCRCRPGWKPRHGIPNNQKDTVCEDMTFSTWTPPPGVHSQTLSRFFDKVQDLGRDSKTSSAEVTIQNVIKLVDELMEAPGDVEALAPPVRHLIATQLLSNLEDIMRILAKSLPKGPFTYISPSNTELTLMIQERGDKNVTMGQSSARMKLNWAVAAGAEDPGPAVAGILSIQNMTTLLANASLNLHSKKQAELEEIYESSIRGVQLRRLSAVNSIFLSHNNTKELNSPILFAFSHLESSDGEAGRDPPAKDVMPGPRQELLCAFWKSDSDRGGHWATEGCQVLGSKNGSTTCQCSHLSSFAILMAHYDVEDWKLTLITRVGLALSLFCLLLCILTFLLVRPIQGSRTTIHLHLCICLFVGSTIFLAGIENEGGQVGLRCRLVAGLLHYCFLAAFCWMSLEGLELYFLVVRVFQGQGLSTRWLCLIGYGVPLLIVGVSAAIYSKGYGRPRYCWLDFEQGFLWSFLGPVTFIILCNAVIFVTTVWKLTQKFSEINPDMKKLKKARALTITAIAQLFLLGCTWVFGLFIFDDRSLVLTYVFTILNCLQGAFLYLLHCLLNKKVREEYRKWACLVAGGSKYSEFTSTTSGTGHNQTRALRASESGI
UniProt Q13705, sequence (whole entry, looked up): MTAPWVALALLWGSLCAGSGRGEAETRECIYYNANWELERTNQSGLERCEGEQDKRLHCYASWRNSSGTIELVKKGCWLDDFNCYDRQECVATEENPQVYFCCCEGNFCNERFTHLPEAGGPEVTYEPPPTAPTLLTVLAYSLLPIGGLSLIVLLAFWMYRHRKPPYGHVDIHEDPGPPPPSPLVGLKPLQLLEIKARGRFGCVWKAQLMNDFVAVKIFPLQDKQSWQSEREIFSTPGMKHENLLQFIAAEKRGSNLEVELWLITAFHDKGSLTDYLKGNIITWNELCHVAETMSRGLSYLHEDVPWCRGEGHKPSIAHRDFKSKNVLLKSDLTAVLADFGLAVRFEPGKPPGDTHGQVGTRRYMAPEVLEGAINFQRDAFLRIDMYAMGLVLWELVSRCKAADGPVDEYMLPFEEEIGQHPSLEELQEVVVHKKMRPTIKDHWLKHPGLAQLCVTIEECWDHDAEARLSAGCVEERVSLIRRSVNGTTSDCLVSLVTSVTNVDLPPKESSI
UniProt O14757, sequence (whole entry, looked up): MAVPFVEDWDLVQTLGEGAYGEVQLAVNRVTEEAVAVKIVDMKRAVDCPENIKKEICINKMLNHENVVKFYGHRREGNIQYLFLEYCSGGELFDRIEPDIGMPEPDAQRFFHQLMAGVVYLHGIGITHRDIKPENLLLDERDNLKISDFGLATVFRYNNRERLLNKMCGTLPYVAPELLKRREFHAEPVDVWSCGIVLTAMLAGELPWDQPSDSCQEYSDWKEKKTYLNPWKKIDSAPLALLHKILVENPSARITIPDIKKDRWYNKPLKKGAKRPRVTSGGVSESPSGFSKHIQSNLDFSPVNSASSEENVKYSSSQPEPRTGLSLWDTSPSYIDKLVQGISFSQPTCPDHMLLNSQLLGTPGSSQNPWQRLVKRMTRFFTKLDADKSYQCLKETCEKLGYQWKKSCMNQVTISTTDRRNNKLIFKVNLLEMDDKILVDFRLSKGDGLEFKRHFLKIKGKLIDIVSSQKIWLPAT

Block 1
Target: Cyclin-dependent kinase 6, with cyclin D1 (CDK6, Homo sapiens, UniProt Q00534)
UniProt Q00534, sequence (whole entry, looked up): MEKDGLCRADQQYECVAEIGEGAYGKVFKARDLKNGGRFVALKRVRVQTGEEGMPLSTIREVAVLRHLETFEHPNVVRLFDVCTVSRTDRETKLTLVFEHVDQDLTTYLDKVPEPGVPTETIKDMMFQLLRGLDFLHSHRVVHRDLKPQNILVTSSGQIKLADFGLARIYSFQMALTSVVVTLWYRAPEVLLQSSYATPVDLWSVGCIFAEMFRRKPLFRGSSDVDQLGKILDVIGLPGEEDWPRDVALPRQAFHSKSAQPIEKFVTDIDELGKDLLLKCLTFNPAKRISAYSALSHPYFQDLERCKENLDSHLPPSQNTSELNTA
Effect on: enzyme activity
Action: inhibitor
Tested at: 0.5 µM
Reference: control
With `Cn1c2ccccc2c2c3c(c4c5ccccc5n(CCC#N)c4c21)CNC3=O` the remaining activity was 39.4%.
`C#Cc1cccc(Nc2ncnc3cc(OCCOC)c(OCCOC)cc23)c1` has a remaining activity of 98.7%.
`COc1cc2nccc(Oc3ccc(NC(=S)NC(=O)c4ccccc4C)cc3)c2cc1OC` gave a remaining activity of 87.1%.
For `Cc1nc(-c2ccccc2)c(-c2ccncc2)o1`, the remaining activity was 101%.
For `Cc1ccc(NC(=O)c2ccc(CN3CCN(C)CC3)cc2)cc1Nc1nc(-c2cccnc2)cs1`, the remaining activity was 98%.
The remaining activity of `O=c1c2ccccc2[nH]c(=S)n1CCN1CCC(=C(c2ccc(F)cc2)c2ccc(F)cc2)CC1` is reported as 98.7%.
For `Nc1ccc2ncnc(NCCc3ccc(Oc4ccccc4)cc3)c2c1`, the remaining activity was 101%.
For `Nc1ncnc2n[nH]c(Nc3ccc(F)cc3)c12`, the remaining activity was 96.6%.
With `O=C1NC(=O)C(c2cn(CCCO)c3ncccc23)=C1c1cnccn1` the remaining activity was 83.4%.
With `COc1ccc(CNC(=O)Nc2ncc([N+](=O)[O-])s2)cc1` the remaining activity was 98.6%.
`O=C(CCCc1ccc(-c2ccccc2F)cc1)Nc1ccc(O)cc1` gave a remaining activity of 98.2%.
The remaining activity of `COc1ccc(OC)c2c(=S)c3ccccc3[nH]c12` is reported as 102%.
The remaining activity of `O=S(=O)(c1cccc2cnccc12)N1CCCNCC1` is reported as 86.4%.
`CCOC(=O)c1c(C)[nH]c(/C=C2\C(=O)Nc3ccccc32)c1C` has a remaining activity of 89.7%.
The remaining activity of `CNC(=O)c1cc(Oc2ccc(NC(=O)Nc3ccc(Cl)c(C(F)(F)F)c3)cc2)ccn1` is reported as 91.8%.
`O=C(O)c1ccc2c3c1cccc3c(=O)n1c3ccccc3nc21` gave a remaining activity of 90.6%.

Block 2
Structure (SMILES): CC(C)(O)c1cncc(-c2nc3ccc(F)cc3n2C2CC2)c1
Method: competition with immobilised ligand
Tested at: 1 µM
The remaining binding was 82% (LATS1 (Homo sapiens, UniProt O95835); cell-free assay).
FLT3 (Homo sapiens, UniProt P36888, R834Q); cell-free assay — remaining binding: 100%.
It gave 100% for remaining binding (CHEK1 (Homo sapiens, UniProt O14757); cell-free assay).
The remaining binding was 100% (LRRK2 (Homo sapiens, UniProt Q5S007, G2019S); cell-free assay).
For BMPR1A (Homo sapiens, UniProt P36894); binding: remaining binding read 88%.
The remaining binding was 85% (ACVR2B (Homo sapiens, UniProt Q13705); cell-free assay).

Block 3
Cell line: HaCaT
Tested at: 100 µM
Time: 36 h
With `Cc1[nH]c(=O)c(C#N)cc1-c1ccncc1` the viability was 75.9%.
`O=c1[nH]cc(F)c(=O)[nH]1` has a viability of 46%.
`N[C@@H](CC(=O)N1CCn2c(nnc2C(F)(F)F)C1)Cc1cc(F)c(F)cc1F` gave a viability of 81.9%.
For `COc1ccc(C[C@@H]2c3cc(OC)c(OC)cc3CC[N@+]2(C)CCC(=O)OCCCCCOC(=O)CC[N@@+]2(C)CCc3cc(OC)c(OC)cc3[C@H]2Cc2ccc(OC)c(OC)c2)cc1OC`, the viability was 13.7%.
For `O=C(O)c1cc(=O)[nH]c(=O)[nH]1`, the viability was 93.6%.
With `C#C[C@]1(O)CC[C@H]2[C@@H]3CCc4cc(O)ccc4[C@H]3CC[C@@]21C` the viability was 12.3%.
`COc1cc(/C=C/C(=O)N2CCN(CC(=O)N3CCCC3)CC2)cc(OC)c1OC` gave a viability of 87.5%.
With `CCCCCCCCCCCCCCCC[N+](C)(C)CCN(Cc1ccc(OC)cc1)c1ncccn1` the viability was 7.78%.

Block 4
Structure (SMILES): N=C(N)NC(=O)c1cnn(-c2cccc3ncccc23)c1C1CC1
Effect on: β-arrestin recruitment
Action: agonist
Method: PRESTO-Tango
Tested at: 10 µM
Reference: untreated
For Adhesion G protein-coupled receptor E5 (Homo sapiens, UniProt P48960): “fold over basal” read 0.88.
For F2R (Homo sapiens, UniProt P25116): “fold over basal” read 1.38.
SUCNR1 (Homo sapiens, UniProt Q9BXA5) — “fold over basal”: 1.42 fold.
For ADORA3 (Homo sapiens, UniProt P0DMS8): “fold over basal” read 1.55.
For GPR65 (Homo sapiens, UniProt Q8IYL9): “fold over basal” read 0.78.
Oxytocin receptor (OXTR, Homo sapiens, UniProt P30559) — “fold over basal”: 0.66.
HTR1A (Homo sapiens, UniProt P08908) — “fold over basal”: 1.21.

Excerpt of the above (block 3):
`COc1cc(/C=C/C(=O)N2CCN(CC(=O)N3CCCC3)CC2)cc(OC)c1OC` gave a viability of 87.5%.
For `COc1ccc(C[C@@H]2c3cc(OC)c(OC)cc3CC[N@+]2(C)CCC(=O)OCCCCCOC(=O)CC[N@@+]2(C)CCc3cc(OC)c(OC)cc3[C@H]2Cc2ccc(OC)c(OC)c2)cc1OC`, the viability was 13.7%.
With `C#C[C@]1(O)CC[C@H]2[C@@H]3CCc4cc(O)ccc4[C@H]3CC[C@@]21C` the viability was 12.3%.
With `CCCCCCCCCCCCCCCC[N+](C)(C)CCN(Cc1ccc(OC)cc1)c1ncccn1` the viability was 7.78%.
For `O=C(O)c1cc(=O)[nH]c(=O)[nH]1`, the viability was 93.6%.
